Experimental data from different studies.
Protocols differ between the studies behind these lines.
RET: Proto-oncogene tyrosine-protein kinase receptor Ret (RET, Homo sapiens, UniProt P07949)
RET M918T: Proto-oncogene tyrosine-protein kinase receptor Ret (RET, Homo sapiens, UniProt P07949, M918T)
RET V804L: Proto-oncogene tyrosine-protein kinase receptor Ret (RET, Homo sapiens, UniProt P07949, V804L)
RET V804M: Proto-oncogene tyrosine-protein kinase receptor Ret (RET, Homo sapiens, UniProt P07949, V804M)

| Compound | target | assay | setting | scale | remaining binding [%] |
| --- | --- | --- | --- | --- | --- |
| Cc1c[nH]c2nccc(-c3ccc(C(=O)N[C@@H]4c5c(F)cc(C(F)F)cc5C[C@@H]4O)cn3)c12 | RET | binding, competition with immobilised ligand | 3 µM |  | 29 |
| Cc1cnc2nc1Nc1cccc(c1)COC/C=C/COCc1cc(ccc1OCCN1CCOCC1)N2 | RET | binding, competition with immobilised ligand | 0.1 µM |  | 23 |
| Cc1cc(NC(=O)[C@H](O)c2cc(F)cc(F)c2)ccc1-c1cnc(N)c(C(=O)NC(C)C)c1 | RET M918T | binding, competition with immobilised ligand | 1 µM |  | 50 |
| Nc1ncc2c(n1)-c1c([nH]c3ccc(C4=CCOCC4)cc13)CCC2 | RET | binding, competition with immobilised ligand | 1 µM |  | 77 |
| CNC(=O)C1CCN(c2cc(C)c(F)cc2NC(=O)c2ccc(-c3cc(O)ccc3C)c(C)c2)CC1 | RET V804L | binding, competition with immobilised ligand | 1 µM |  | 97 |
| CCN1CCN(Cc2ccc(NC(=O)c3ccc(C)c(NC(=O)c4cncc(-c5cccs5)c4)c3)cc2C(F)(F)F)CC1 | RET | binding, competition with immobilised ligand | 1 µM |  | 0.1 |
| Cc1ccc(-c2c(/C=C(\C#N)C(=O)NC(C)C)n(CCCO)c3ncnc(N)c23)cc1 | RET V804L | cell-free assay, competition with immobilised ligand | 1 µM |  | 96 |
| CCN1CCN(Cc2ccc(C(=O)Nc3ccc(C)c(NCc4cnc5[nH]ccc5c4OC)c3)cc2C(F)(F)F)CC1 | RET V804L | binding, competition with immobilised ligand | 1 µM |  | 11 |
| CNC1C[S+]2CC[S+]3CC[S+](C1)[Ru-4]321([N]=C=S)[n]2c3ccc(OC)cc3c3c4c(c5cc(F)c[n+]1c5c32)C(=O)NC4=O (stereo not drawn) | RET V804M | KinomeScan | 0.1 µM | baseline: untreated | 82 |
| COc1ccc(NC(=O)Nc2ccc3c(c2)C(=O)N(C(C)CO)CC(C)C(CN(C)Cc2ccc4c(c2)OCO4)O3)cc1 (stereo not drawn) | RET | binding, competition with immobilised ligand | 10 µM |  | 100 |
| C=CC(=O)N1CCc2ccc(-n3c(=O)ccc4cnc5ccc(-c6cnn(C)c6)cc5c43)cc21 | RET | KINOMEscan | 1 µM | baseline: DMSO control | 100 |
| CC(C)=CC1OC(C)(C)C2C=C3C(=O)C(Cl)=CC(O)C3C3C(O)C4OC4C(=O)C132 (stereo not drawn) | RET V804M | cell-free assay, competition with immobilised ligand | 10 µM |  | 96 |
| C=CC(=O)N1CCCC(n2c(=O)c3ncccc3n(Cc3ccc(Oc4ccccc4)cc3)c2=O)C1 (stereo not drawn) | RET M918T | cell-free assay, competition with immobilised ligand | 1 µM |  | 94 |
| COc1c(Cl)cccc1Nc1c(-c2ccncc2C#C[C@@]2(C)CCCN2C(=O)/C=C/CN(C)C)[nH]c2c1C(=O)NCC2 | RET V804L | binding, competition with immobilised ligand | 3 µM |  | 97 |
| CN1CCN(Cc2ccc(NC(=O)c3cccc(C#Cc4cnc(N)c5ncccc45)c3)cc2C(F)(F)F)CC1 | RET | cell-free assay, competition with immobilised ligand | 50 nM |  | 0.1 |
